Assay results pooled from the literature.
Compare with care: the assays were run in different laboratories.
Organism: Acinetobacter baumannii

| Structure (SMILES) | test | test system | conditions | MIC |
| --- | --- | --- | --- | --- |
| CC(C)C[C@@H]1NC(=O)[C@@H](CC(C)C)NC(=O)[C@H](CCN)NC(=O)[C@@H](NC(=O)[C@H](CCN)NC(=O)[C@@H](NC(=O)CN=[N+]=[N-])[C@@H](C)O)CCNC(=O)[C@H]([C@@H](C)O)NC(=O)[C@H](CCN)NC(=O)[C@H](CCN)NC1=O | broth microdilution | BAA-747 | – | > 126 µM |
| CC[C@H](C)[C@H](NC(=O)[C@@H](CCCNC(=N)N)NC(=O)[C@H](CCCNC(=N)N)NC(=O)[C@@H]1CCCN1C(=O)[C@@H]1CCCN1C(=O)[C@H](CCCNC(=N)N)NC(=O)[C@@H]1CCCN1C(=O)[C@H](CCCNC(=N)N)NC(=O)[C@@H]1CCCN1C(=O)[C@@H](NC(=O)[C@H](Cc1ccc(O)cc1)NC(=O)[C@@H]1CCCN1C(=O)[C@@H]1CCCN1C(=O)[C@H](CCCCN)NC(=O)[C@H](CC(=O)O)NC(=O)[C@@H](N)C(C)C)C(C)(C)C)C(=O)N[C@@H](Cc1ccc(O)cc1)C(=O)N[C@@H](CC(N)=O)C(=O)N[C@H](CCCNC(=N)N)C(N)=O | broth microdilution | DSM 30008 | 18 h, 37 °C, 25% MHB2 | 64 µg/mL |
| CCCCCCCC(=O)N[C@@H](CCN)C(=O)N[C@H](C(=O)N[C@@H](CCN)C(=O)N[C@H]1CCNC(=O)[C@H](C)NC(=O)[C@H](CCN)NC(=O)[C@H](CCN)NC(=O)[C@H](CC(C)C)NC(=O)[C@@H](Cc2ccccc2)NC(=O)[C@H](CCN)NC1=O)[C@@H](C)O | broth microdilution | ATCC 17978 | 20 h, 37 °C | 1 µg/mL |
| O=C(c1ccccc1O)c1[nH]c(Cl)c(Cl)c1-n1c(C(=O)c2ccccc2O)cc(Cl)c1Cl | microbial growth | ATCC19606 | – | > 64 µM |
| CC[C@H](C)[C@H](NC(=O)[C@@H](CCCNC(=N)N)NC(=O)[C@H](CCCNC(=N)N)NC(=O)CNC(=O)[C@H](Cc1c[nH]c2ccccc12)NC(=O)[C@H](CCCNC(=N)N)NC(=O)[C@@H]1CCCN1C(=O)[C@H](CCCNC(=N)N)NC(=O)[C@@H]1CCCN1C(=O)[C@H](CC(C)C)NC(=O)[C@H](Cc1ccc(O)cc1)NC(=O)[C@@H]1CCCN1C(=O)[C@@H]1CCCN1C(=O)[C@H](CCCCN)NC(=O)[C@H](CC(=O)O)NC(=O)[C@@H](N)C(C)C)C(=O)N[C@@H](Cc1ccc(O)cc1)C(=O)N[C@@H](CC(N)=O)C(=O)N[C@H](CCCNC(=N)N)C(N)=O | broth microdilution | DSM 30008 | 18 h, 37 °C, 25% MHB2 | 16 µg/mL |
| CCCCCCCC(=O)N[C@@H](CCN)C(=O)N[C@H](C(=O)N[C@@H](CCN)C(=O)N[C@H]1CCNC(=O)[C@H]([C@@H](C)O)NC(=O)[C@H](CCN)NC(=O)[C@H](CCN)NC(=O)[C@H](CC(C)C)NC(=O)[C@@H](Cc2ccccc2F)NC(=O)[C@H](CCN)NC1=O)[C@@H](C)O | broth microdilution | ATCC 19606, colistin-susceptible | – | 0.06 to 0.125 µg/mL |
| CCn1c(-c2ccc(F)cc2)c(-c2ccc(F)cc2)n(CCOC)c1=[Se] | broth microdilution | carbapenem-resistant | 24 h | > 40 µM |
| CC[C@H](C)[C@H](NC(=O)[C@H](CCCCN)NC(=O)[C@H](CCCCN)NC(=O)[C@H](Cc1ccccc1)NC(=O)[C@H](Cc1ccccc1)NC(=O)[C@H](CCCCN)NC(=O)[C@H](CCCCN)NC(=O)[C@H](Cc1ccccc1)NC(=O)[C@H](CCCNC(=N)N)NC(=O)[C@@H](N)CCCCN)C(=O)N[C@@H](CCCCN)C(=O)N[C@@H](CCCCN)C(=O)N[C@@H](CO)C(=O)N[C@H](C(=O)N[C@@H](CCCCN)C(=O)N[C@@H](CCCCN)C(=O)N[C@@H](CCCNC(=N)N)C(=O)N[C@H](C(=O)N[C@@H](CCCCN)C(=O)N[C@@H](CCCCN)C(=O)N[C@@H](CC(C)C)C(=O)N[C@@H](Cc1ccccc1)C(=O)N[C@@H](CCCCN)C(=O)N[C@@H](CCCCN)C(=O)N1CCC[C@H]1C(=O)N[C@@H](CCCNC(=N)N)C(=O)N[C@H](C(=O)N[C@H](C(=O)N1CCC[C@H]1C(=O)N[C@H](C(=O)N[C@@H](CO)C(=O)N[C@H](C(=O)N1CCC[C@H]1C(=O)N[C@@H](Cc1ccccc1)C(=O)O)[C@@H](C)CC)[C@@H](C)CC)[C@@H](C)CC)C(C)C)C(C)C)C(C)C | broth microdilution | A1, clinical isolate, Mueller-Hinton broth | 20 h, 37 °C | 4 µg/mL |
| CCCCCCCC(=O)N[C@@H](CCN)C(=O)N[C@H](C(=O)N[C@@H](CCN)C(=O)N[C@H]1CCNC(=O)[C@H]([C@@H](C)O)NC(=O)[C@H](CCN)NC(=O)[C@H](CCN)NC(=O)[C@H](CC(C)C)NC(=O)[C@@H](Cc2ccccc2)NC(=O)[C@H](CCN)NC1=O)[C@@H](C)O | CLSI broth microdilution | 5075, CAMHB | 20 h, 37 °C | 0.5 µg/mL |
| CC[C@H](C)[C@H](NC(=O)[C@@H](CCCNC(=N)N)NC(=O)[C@H](CCCNC(=N)N)NC(=O)[C@@H]1CCCN1C(=O)[C@@H]1CCCN1C(=O)[C@H](CCCNC(=N)N)NC(=O)[C@@H]1CCCN1C(=O)[C@H](CCCNC(=N)N)NC(=O)[C@@H]1CCCN1C(=O)[C@H](CC(C)C)NC(=O)[C@H](Cc1ccc(O)cc1)NC(=O)[C@@H]1CCCN1C(=O)[C@@H]1CCCN1C(=O)[C@H](CCCCN)NC(=O)[C@H](CC(=O)O)NC(=O)[C@@H](N)C(C)C)C(=O)N[C@@H](Cc1ccc(O)c([N+](=O)[O-])c1)C(=O)N[C@@H](CC(N)=O)C(=O)N[C@H](CCCNC(=N)N)C(N)=O | broth microdilution | DSM 30008 | 18 h, 37 °C, 25% MHB2 | 32 µg/mL |
| CC[C@H](C)[C@H](NC(=O)[C@H](CCCNC(=N)N)NC(=O)[C@H](Cc1c[nH]c2ccccc12)NC(=O)[C@H](Cc1c[nH]c2ccccc12)NC(=O)[C@H](CCCNC(=N)N)NC(=O)[C@@H](N)CCCNC(=N)N)C(=O)N[C@@H](Cc1c[nH]c2ccccc12)C(N)=O | – | – | without added MgSO4 | 8 µg/mL |
| CCCCCCCC(=O)N[C@@H](CCN)C(=O)N[C@H](C(=O)N[C@@H](CCN)C(=O)N[C@H]1CCNC(=O)[C@H]([C@@H](C)O)NC(=O)[C@H](CCN)NC(=O)[C@H](CCN)NC(=O)[C@H](CCCCCC)NC(=O)[C@@H](Cc2ccccc2)NC(=O)[C@H](CCN)NC1=O)[C@@H](C)O | broth microdilution | ATCC 19606, colistin-susceptible | – | 0.125 to 0.25 µg/mL |
| CCCCCCCC(=O)N[C@@H](CCN)C(=O)N[C@H](C(=O)N[C@@H](CCN)C(=O)N[C@H]1CCNC(=O)[C@H]([C@@H](C)O)NC(=O)[C@H](CCN)NC(=O)[C@H](CCN)NC(=O)[C@H](CC(C)C)NC(=O)[C@@H](C)NC(=O)[C@H](CCN)NC1=O)[C@@H](C)O | CLSI broth microdilution | 248-01-C.248, CAMHB | 20 h, 37 °C | 128 µg/mL |
| CC[C@H](C)[C@H](NC(=O)[C@@H](CCCNC(=N)N)NC(=O)[C@H](CCCNC(=N)N)NC(=O)[C@H](CC(C)C)NC(=O)[C@H](Cc1c[nH]c2ccccc12)NC(=O)[C@H](CCCNC(=N)N)NC(=O)[C@@H]1CCCN1C(=O)[C@H](CCCNC(=N)N)NC(=O)[C@@H]1CCCN1C(=O)[C@H](CC(C)C)NC(=O)[C@H](Cc1ccc(O)cc1)NC(=O)[C@@H]1CCCN1C(=O)[C@@H]1CCCN1C(=O)[C@H](CCCCN)NC(=O)[C@H](CC(=O)O)NC(=O)[C@@H](N)C(C)C)C(=O)N[C@@H](Cc1ccc(O)cc1)C(=O)N[C@@H](CC(N)=O)C(=O)N[C@H](CCCNC(=N)N)C(N)=O | broth microdilution | DSM 30008 | 18 h, 37 °C, 25% MHB2 | 16 µg/mL |
| CC[C@H](C)[C@H](N)C(=O)N[C@@H](CCCNC(=N)N)C(=O)N[C@H](C(=O)N[C@@H](Cc1c[nH]c2ccccc12)C(=O)N[C@@H](Cc1ccccc1)C(=O)N[C@H](C(=O)N[C@@H](CCCCN)C(=O)N[C@H](C(=O)N[C@@H](CCCNC(=N)N)C(=O)N[C@@H](CCCCN)C(=O)N[C@@H](CCSC)C(=O)N[C@@H](CCCCN)C(=O)N[C@@H](C)C(=O)N[C@H](C(=O)N[C@@H](Cc1ccc(O)cc1)C(=O)N[C@@H](Cc1c[nH]cn1)C(N)=O)[C@@H](C)CC)C(C)C)[C@@H](C)CC)C(C)C | broth dilution | ATCC 19606 | – | 6.3 µM |
| CC[C@H](C)[C@H](NC(=O)CNC(=O)[C@H](CC(=O)O)NC(=O)[C@H](CCCNC(=N)N)NC(=O)[C@@H](NC(=O)[C@H](Cc1c[nH]cn1)NC(=O)[C@H](CCC(N)=O)NC(=O)CNC(=O)[C@@H](NC(=O)[C@H](CCCNC(=N)N)NC(=O)[C@H](CCC(=O)O)NC(=O)[C@@H](NC(=O)[C@H](CCCCN)NC(=O)[C@H](CCCCN)NC(=O)[C@H](Cc1ccccc1)NC(=O)[C@@H](NC(=O)[C@H](CCCCN)NC(=O)[C@H](Cc1c[nH]c2ccccc12)NC(=O)[C@@H](N)CCCCN)[C@@H](C)CC)[C@@H](C)CC)C(C)C)C(C)C)C(=O)N[C@H](C(=O)N[C@@H](CCCCN)C(=O)N[C@@H](C)C(=O)NCC(=O)N[C@@H](CO)C(=O)N[C@@H](C)C(=O)N[C@H](C(=O)N[C@@H](CCC(N)=O)C(=O)N[C@H](C(=O)N[C@H](C(=O)NCC(=O)N[C@@H](CCC(N)=O)C(=O)N[C@@H](C)C(=O)N[C@@H](C)C(=O)N[C@@H](C)C(=O)N[C@H](C(=O)N[C@@H](C)C(=O)N[C@@H](CCCCN)C(N)=O)[C@@H](C)CC)C(C)C)C(C)C)C(C)C)[C@@H](C)CC | bacterial growth, broth microdilution | cation-adjusted Mueller Hinton broth | 18 h, 37 °C | ≤ 0.062 µM |
| CN[C@H](CC(C)C)C(=O)N[C@H]1C(=O)N[C@@H](CC(N)=O)C(=O)N[C@H]2C(=O)N[C@H]3C(=O)N[C@H](C(=O)N[C@H](C(=O)NCC(N)=O)c4cc(O)cc(O)c4-c4cc3ccc4O)[C@H](O)c3ccc(c(Cl)c3)Oc3cc2cc(c3O[C@@H]2O[C@H](CO)[C@@H](O)[C@H](O)[C@H]2O[C@H]2C[C@](C)(NCc3ccc(OCc4cn(CC(=O)N[C@H](C(=O)N[C@@H](CCN)C(=O)N[C@H]5CCNC(=O)[C@H]([C@@H](C)O)NC(=O)[C@H](CCN)NC(=O)[C@H](CCN)NC(=O)[C@H](CC(C)C)NC(=O)[C@@H](CC(C)C)NC(=O)[C@H](CCN)NC5=O)[C@@H](C)O)nn4)c(OC)c3)[C@H](O)[C@H](C)O2)Oc2ccc(cc2Cl)[C@H]1O | broth microdilution | BAA-747 | – | 6 µM |
| CCCCCCCC(=O)N[C@@H](CCN)C(=O)N[C@H](C(=O)N[C@@H](CCN)C(=O)N[C@H]1CCNC(=O)[C@H]([C@@H](C)O)NC(=O)[C@H](CCN)NC(=O)[C@H](CCN)NC(=O)[C@H](Cc2ccccc2)NC(=O)[C@@H](CCCCCC)NC(=O)[C@H](CCN)NC1=O)[C@@H](C)O | broth microdilution | ATCC 19606, colistin-susceptible | – | 0.25 to 0.5 µg/mL |

For quick reference, copied from above:
| Structure (SMILES) | test | test system | conditions | MIC |
| --- | --- | --- | --- | --- |
| CC[C@H](C)[C@H](NC(=O)[C@@H](CCCNC(=N)N)NC(=O)[C@H](CCCNC(=N)N)NC(=O)[C@@H]1CCCN1C(=O)[C@@H]1CCCN1C(=O)[C@H](CCCNC(=N)N)NC(=O)[C@@H]1CCCN1C(=O)[C@H](CCCNC(=N)N)NC(=O)[C@@H]1CCCN1C(=O)[C@H](CC(C)C)NC(=O)[C@H](Cc1ccc(O)cc1)NC(=O)[C@@H]1CCCN1C(=O)[C@@H]1CCCN1C(=O)[C@H](CCCCN)NC(=O)[C@H](CC(=O)O)NC(=O)[C@@H](N)C(C)C)C(=O)N[C@@H](Cc1ccc(O)c([N+](=O)[O-])c1)C(=O)N[C@@H](CC(N)=O)C(=O)N[C@H](CCCNC(=N)N)C(N)=O | broth microdilution | DSM 30008 | 18 h, 37 °C, 25% MHB2 | 32 µg/mL |
| CC[C@H](C)[C@H](NC(=O)[C@H](CCCNC(=N)N)NC(=O)[C@H](Cc1c[nH]c2ccccc12)NC(=O)[C@H](Cc1c[nH]c2ccccc12)NC(=O)[C@H](CCCNC(=N)N)NC(=O)[C@@H](N)CCCNC(=N)N)C(=O)N[C@@H](Cc1c[nH]c2ccccc12)C(N)=O | – | – | without added MgSO4 | 8 µg/mL |
| CCCCCCCC(=O)N[C@@H](CCN)C(=O)N[C@H](C(=O)N[C@@H](CCN)C(=O)N[C@H]1CCNC(=O)[C@H]([C@@H](C)O)NC(=O)[C@H](CCN)NC(=O)[C@H](CCN)NC(=O)[C@H](CCCCCC)NC(=O)[C@@H](Cc2ccccc2)NC(=O)[C@H](CCN)NC1=O)[C@@H](C)O | broth microdilution | ATCC 19606, colistin-susceptible | – | 0.125 to 0.25 µg/mL |
